Measured values of several laboratories.
Protocols differ between the studies behind these lines. ± marks the error that the study gave.
Chain of UniProt Q9Y6L6 (whole entry, looked up): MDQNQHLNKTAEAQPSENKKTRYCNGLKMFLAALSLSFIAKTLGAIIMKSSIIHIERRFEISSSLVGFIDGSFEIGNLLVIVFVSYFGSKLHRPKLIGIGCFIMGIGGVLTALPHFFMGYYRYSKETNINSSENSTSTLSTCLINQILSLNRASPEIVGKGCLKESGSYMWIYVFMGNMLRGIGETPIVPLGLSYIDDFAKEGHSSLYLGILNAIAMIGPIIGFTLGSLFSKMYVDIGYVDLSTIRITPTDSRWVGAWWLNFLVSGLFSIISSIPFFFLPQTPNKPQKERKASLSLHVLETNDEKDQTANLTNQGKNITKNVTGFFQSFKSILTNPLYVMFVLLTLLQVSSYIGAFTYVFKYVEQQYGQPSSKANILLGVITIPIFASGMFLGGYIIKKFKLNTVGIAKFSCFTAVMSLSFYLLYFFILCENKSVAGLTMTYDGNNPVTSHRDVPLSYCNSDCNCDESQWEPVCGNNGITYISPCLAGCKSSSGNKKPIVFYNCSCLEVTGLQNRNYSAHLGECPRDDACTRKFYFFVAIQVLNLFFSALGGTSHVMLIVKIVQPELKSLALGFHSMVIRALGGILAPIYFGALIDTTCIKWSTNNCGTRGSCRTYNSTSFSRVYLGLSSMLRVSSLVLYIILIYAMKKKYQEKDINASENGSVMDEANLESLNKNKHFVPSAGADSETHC
Chain of UniProt P02769 (whole entry, looked up): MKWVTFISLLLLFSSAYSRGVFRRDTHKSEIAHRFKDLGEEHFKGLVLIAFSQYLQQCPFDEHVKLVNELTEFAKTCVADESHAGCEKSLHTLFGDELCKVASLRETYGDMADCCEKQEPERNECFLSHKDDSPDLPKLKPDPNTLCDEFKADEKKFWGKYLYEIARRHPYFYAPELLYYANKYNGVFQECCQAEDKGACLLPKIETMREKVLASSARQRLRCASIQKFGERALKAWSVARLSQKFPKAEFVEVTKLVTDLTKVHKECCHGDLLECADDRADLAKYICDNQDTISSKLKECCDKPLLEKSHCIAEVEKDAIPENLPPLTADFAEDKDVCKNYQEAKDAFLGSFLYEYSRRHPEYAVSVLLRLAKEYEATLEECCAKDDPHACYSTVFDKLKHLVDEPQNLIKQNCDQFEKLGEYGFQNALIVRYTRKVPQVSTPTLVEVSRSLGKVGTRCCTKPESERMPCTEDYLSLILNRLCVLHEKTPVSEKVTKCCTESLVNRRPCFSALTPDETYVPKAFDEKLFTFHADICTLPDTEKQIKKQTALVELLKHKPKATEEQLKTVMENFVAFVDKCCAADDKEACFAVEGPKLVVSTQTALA

Compound	target or system	assay	test system	conditions	how to read	endpoint	result
CO[C@@H]1[C@@H](OC(N)=O)[C@@H](O)[C@H](Oc2ccc3c(O)c(NC(=O)c4ccc(O)c(CC=C(C)C)c4)c(=O)oc3c2C)OC1(C)C	–	mitochondrial swelling	BALB/cByJ female mouse liver mitochondria	30 min, with: succinate + rotenone	relative to: CaCl2 maximal swelling	EC20	290 µM
O=c1c(O)c(-c2ccc(O)c(OS(=O)(=O)O)c2)oc2cc(O)cc(O)c12	–	–	human, fasted baseline, cerebrospinal fluid	–	–	mean concentration	18.1 nM
Cc1cc(Nc2cc3ncccc3c(N[C@@H]3C[C@H]4CC[C@@H](C3)N4CCC#N)n2)n[nH]1	–	–	dog, female, plasma	oral, 100 mg/kg/day, week 28 day 197, 39-week repeat dose	mean	Cmax	545 ng/mL
O=C(NC[C@H]1CN(c2ccc(N3CCOCC3=O)cc2)C(=O)O1)c1ccc(Cl)s1	–	–	Sprague-Dawley rat, male, plasma	oral, 10 mg/kg	–	apparent volume Vz/F	23 ± 4.81 L/kg
Cc1ccc(NC(=O)c2ccc(CN3CCN(C)CC3)cc2)cc1Nc1nccc(-c2cccnc2)n1	–	cytochrome c release, ELISA	BALB/cByJ female mouse liver mitochondria	30 min	relative to: alamethicin maximal release	EC20	164 µM
CCCCCN1C[C@H](O)[C@@H](O)[C@H](O)[C@@H]1CO	–	–	human males, plasma	oral, dose not given, distribution phase, single dose	–	concentration decrease from Cmax	> 98%
CC[C@H]1OC(=O)[C@H](C)[C@@H](O[C@H]2C[C@@](C)(OC)[C@@H](O)[C@H](C)O2)[C@H](C)[C@@H](O[C@@H]2O[C@H](C)C[C@H](N(C)C)[C@H]2O)[C@](C)(O)C[C@@H](C)CN(C)[C@H](C)[C@@H](O)[C@]1(C)O	Haemophilus influenzae	–	hospitalized pneumonia patients, clinical isolates	Fine score 70 or more	–	susceptible isolates	100%
O=[N+]([O-])c1ccc(S(=O)(=O)Cc2ccccc2)c2nonc12	–	–	ammonium carbonate buffer	pH 9	relative to: water	degradation product peak area	100 fold
C#Cc1cccc(Nc2ncnc3cc(OCCOC)c(OCCOC)cc23)c1	–	–	NOD/SCID mouse, male, whole blood or plasma	oral, 12.5 mg/kg every 12 h, 12 h, day 1	–	Cmin	521 ± 169 ng/mL
COc1cccc(N2CCN(C3=Nc4c(F)cccc4[C@H](CC(=O)O)N3c3cc(C(F)(F)F)ccc3OC)CC2)c1	–	UHPLC-MS/MS	healthy women, plasma	intravenous infusion, 120 mg single dose, 30 min infusion, HPβCD formulation	–	clearance	157 ± 45.1 mL/min
CCc1cc2c(C(=O)c3cc(Br)c(O)c(Br)c3)c(O)ccc2o1	–	metabolic stability	Sprague-Dawley rat, liver microsomes	1 µM, pH 7.4	–	microsomal CLint	70.2 µL/min/mg
CCCC[C@@H]1NC(=O)[C@@H](NC(=O)[C@H](CCC(=O)O)NC(=O)CNC(=O)CN2CCN(CC(=O)O)CCN(CC(=O)O)CCN(CC(=O)O)CC2)CCCCNC(=O)C[C@@H](C(N)=O)NC(=O)[C@H](C(C)C)NC(=O)[C@@H]2CCCN2C(=O)[C@H](CCCNC(=N)N)NC(=O)CNC(=O)[C@H](Cc2c[nH]c3ccccc23)NC(=O)[C@H](CCCNC(=N)N)NC(=O)[C@@H](Cc2ccccc2)NC(=O)[C@H](Cc2c[nH]cn2)NC(=O)[C@H](CCC(=O)O)NC1=O [indium-111 labelled]	–	–	C57 mice, B16/F10 lung metastatic melanoma, muscle	intravenous, 0.037 MBq, 24 h	–	tissue uptake	0.03 ± 0.02 %ID/g
Cn1c(-c2ccc(C(N)=O)cc2F)nnc1C(C)(C)Oc1c(F)cc(Cl)cc1F	–	–	young non-Japanese adults, plasma	oral, 50 mg single dose, day 1, high-dose multiple-dose study	–	Tmax range over subjects	2 to 4 h
O=c1cc2n(cc1O)CCN(Cc1ccc(Cl)cc1Cl)C2	–	–	rat, plasma	oral, 100 mg/kg, 4 h, unbound	–	concentration	290 nM
CCCC[P+](CCCC)(CCCC)Cc1ccc(NC(=O)[C@H](Cc2ccc3ccccc3c2)NC(=NC2CCCCC2)NC2CCCCC2)cc1	Leishmania donovani	–	intracellular amastigote	–	–	EC50	31 ± 5 µM
CN(C)C(=N)N=C(N)N	–	mitochondrial swelling	BALB/cByJ female mouse liver mitochondria	30 min, with: succinate + rotenone	relative to: CaCl2 maximal swelling	EC20	> 400 µM
CC1(C)C(/C=C/C=C/C=C/C=C2\N(CCCCS(=O)(=O)O)c3ccc4ccccc4c3C2(C)C)=[N+](CCCCS(=O)(=O)[O-])c2ccc3ccccc3c21	–	–	human serum in agar phantom	1 h, room temperature, 21 MHz, gain 40 dB	relative to: India Ink	photoacoustic signal slope	0.06 ± 0.002 µM⁻¹
CC(C)[C@H](NC(=O)[C@@H]1CCCN1C(=O)[C@H](CCCNC(=N)N)NC(=O)[C@H](CS)NC(=O)[C@H](Cc1c[nH]c2ccccc12)NC(=O)[C@H](CCCNC(=N)N)NC(=O)[C@@H](Cc1ccccc1)NC(=O)[C@H](Cc1c[nH]cn1)NC(=O)[C@H](CCC(=O)O)NC(=O)[C@H](CS)NC(=O)[C@H](CS)NC(=O)[C@H](CCCCN)NC(=O)[C@@H]1CC(=O)N[C@@H](CCCNC(=N)N)C(=O)N[C@@H](C)C(=O)N[C@@H](CC(=O)O)C(=O)N[C@H](Cc2ccc(O)cc2)C(=O)N1)C(N)=O [technetium-99m labelled]	–	–	C57 mice, intestines	iv, 0.037 MBq, 0.5 h	–	tissue uptake	2.15 ± 0.25 %ID
O=C(c1nc2n(n1)[C@H](c1ccccc1)C[C@@H]2F)C1CC1	–	–	human, plasma	oral, 25 mg, single dose, fasted, healthy volunteers	–	Vd/F	76.1 L
COCCc1ccc(OCC(O)CNC(C)C)cc1 (centres unmarked)	Albumin (ALB, Bos taurus, UniProt P02769)	ultrafiltration	Bos taurus, albumin solution	0.5 µg/mL, 60 min, with: atractylenolide III 0.1 µg/mL	–	unbound fraction	0.728
CN(C)Cc1cc(OCCC[18F])ccc1Sc1ccccc1N	SERT	–	male Sprague Dawley rat, PCA-treated, cortex	intravenous, 60 min	–	tissue uptake	0.16 ± 0.04 %ID/g
CC[C@H]1OC(=O)[C@H](C)[C@@H](O[C@H]2C[C@@](C)(OC)[C@@H](O)[C@H](C)O2)[C@H](C)[C@@H](O[C@@H]2O[C@H](C)C[C@H](N(C)C)[C@H]2O)[C@](C)(O)C[C@@H](C)C(=O)[C@H](C)[C@@H](O)[C@]1(C)O	other Haemophilus species	–	community-acquired pneumonia patients	Fine score below 70	–	sensitive strains	0%
C=CC(=O)N1CCC([C@@H]2CCNc3c(C(N)=O)c(-c4ccc(Oc5ccccc5)cc4)nn32)CC1	SLCO1B1 (Homo sapiens, UniProt Q9Y6L6)	transport, refers to: estradiol-17β-glucuronide uptake	HEK293 transfected	5 µM	relative to: vehicle	remaining activity	85.7 ± 6.4%

Some of these lines once more:
Compound	target or system	assay	test system	conditions	how to read	endpoint	result
COCCc1ccc(OCC(O)CNC(C)C)cc1 (centres unmarked)	Albumin (ALB, Bos taurus, UniProt P02769)	ultrafiltration	Bos taurus, albumin solution	0.5 µg/mL, 60 min, with: atractylenolide III 0.1 µg/mL	–	unbound fraction	0.728
CCCC[C@@H]1NC(=O)[C@@H](NC(=O)[C@H](CCC(=O)O)NC(=O)CNC(=O)CN2CCN(CC(=O)O)CCN(CC(=O)O)CCN(CC(=O)O)CC2)CCCCNC(=O)C[C@@H](C(N)=O)NC(=O)[C@H](C(C)C)NC(=O)[C@@H]2CCCN2C(=O)[C@H](CCCNC(=N)N)NC(=O)CNC(=O)[C@H](Cc2c[nH]c3ccccc23)NC(=O)[C@H](CCCNC(=N)N)NC(=O)[C@@H](Cc2ccccc2)NC(=O)[C@H](Cc2c[nH]cn2)NC(=O)[C@H](CCC(=O)O)NC1=O [indium-111 labelled]	–	–	C57 mice, B16/F10 lung metastatic melanoma, muscle	intravenous, 0.037 MBq, 24 h	–	tissue uptake	0.03 ± 0.02 %ID/g
O=c1cc2n(cc1O)CCN(Cc1ccc(Cl)cc1Cl)C2	–	–	rat, plasma	oral, 100 mg/kg, 4 h, unbound	–	concentration	290 nM
CCCC[P+](CCCC)(CCCC)Cc1ccc(NC(=O)[C@H](Cc2ccc3ccccc3c2)NC(=NC2CCCCC2)NC2CCCCC2)cc1	Leishmania donovani	–	intracellular amastigote	–	–	EC50	31 ± 5 µM
